Measurements pooled from the literature.
Every numbered part comes from another study and shows a few of its results, in no order. “And” joins repeats or separate records; there may be more than shown.
UniProt P07333, sequence (whole entry, looked up): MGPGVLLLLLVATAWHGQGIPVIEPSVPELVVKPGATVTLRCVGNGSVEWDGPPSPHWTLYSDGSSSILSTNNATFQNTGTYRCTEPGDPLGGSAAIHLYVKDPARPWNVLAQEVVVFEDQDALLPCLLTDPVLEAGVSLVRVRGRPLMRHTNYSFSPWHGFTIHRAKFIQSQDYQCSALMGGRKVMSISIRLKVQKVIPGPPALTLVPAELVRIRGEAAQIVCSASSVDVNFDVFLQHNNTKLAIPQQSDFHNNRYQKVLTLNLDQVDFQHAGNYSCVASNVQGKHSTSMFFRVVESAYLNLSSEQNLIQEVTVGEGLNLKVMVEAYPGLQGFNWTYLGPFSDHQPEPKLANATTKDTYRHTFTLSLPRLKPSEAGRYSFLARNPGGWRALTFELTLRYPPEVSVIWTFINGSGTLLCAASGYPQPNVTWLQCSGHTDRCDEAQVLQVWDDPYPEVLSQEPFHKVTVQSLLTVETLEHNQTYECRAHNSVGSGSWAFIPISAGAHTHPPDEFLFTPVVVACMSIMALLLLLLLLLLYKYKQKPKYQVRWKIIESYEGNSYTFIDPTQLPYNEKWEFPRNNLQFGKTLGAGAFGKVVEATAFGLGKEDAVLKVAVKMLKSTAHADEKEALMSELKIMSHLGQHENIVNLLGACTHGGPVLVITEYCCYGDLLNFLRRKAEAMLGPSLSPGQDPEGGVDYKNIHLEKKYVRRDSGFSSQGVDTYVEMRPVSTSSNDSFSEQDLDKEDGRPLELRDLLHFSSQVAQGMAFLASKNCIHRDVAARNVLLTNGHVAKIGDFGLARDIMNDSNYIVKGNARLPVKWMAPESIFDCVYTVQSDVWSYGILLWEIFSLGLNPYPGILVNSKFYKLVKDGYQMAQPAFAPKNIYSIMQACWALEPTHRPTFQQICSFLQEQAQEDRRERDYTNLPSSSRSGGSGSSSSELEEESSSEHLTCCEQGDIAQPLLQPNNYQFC
UniProt Q8NFD2, sequence (whole entry, looked up): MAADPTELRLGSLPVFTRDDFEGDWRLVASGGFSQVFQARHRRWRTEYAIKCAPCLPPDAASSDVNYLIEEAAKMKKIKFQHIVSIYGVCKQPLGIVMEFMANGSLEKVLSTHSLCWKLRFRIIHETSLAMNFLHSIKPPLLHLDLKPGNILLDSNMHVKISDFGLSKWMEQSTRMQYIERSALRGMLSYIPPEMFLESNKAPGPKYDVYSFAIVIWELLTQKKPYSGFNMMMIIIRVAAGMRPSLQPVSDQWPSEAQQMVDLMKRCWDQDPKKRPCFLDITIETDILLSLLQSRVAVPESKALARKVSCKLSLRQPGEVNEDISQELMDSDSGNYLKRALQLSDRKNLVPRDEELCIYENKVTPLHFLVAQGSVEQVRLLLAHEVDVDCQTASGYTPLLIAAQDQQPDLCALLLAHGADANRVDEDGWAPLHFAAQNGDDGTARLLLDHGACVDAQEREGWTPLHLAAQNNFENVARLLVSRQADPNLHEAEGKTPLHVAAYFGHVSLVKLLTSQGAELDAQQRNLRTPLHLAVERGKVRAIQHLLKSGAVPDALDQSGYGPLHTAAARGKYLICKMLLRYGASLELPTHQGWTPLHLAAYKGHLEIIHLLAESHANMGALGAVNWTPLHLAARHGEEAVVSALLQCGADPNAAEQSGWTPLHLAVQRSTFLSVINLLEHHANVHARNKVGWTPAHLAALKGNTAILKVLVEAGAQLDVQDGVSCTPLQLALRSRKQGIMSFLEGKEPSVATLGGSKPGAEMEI
UniProt P31152, sequence (whole entry, looked up): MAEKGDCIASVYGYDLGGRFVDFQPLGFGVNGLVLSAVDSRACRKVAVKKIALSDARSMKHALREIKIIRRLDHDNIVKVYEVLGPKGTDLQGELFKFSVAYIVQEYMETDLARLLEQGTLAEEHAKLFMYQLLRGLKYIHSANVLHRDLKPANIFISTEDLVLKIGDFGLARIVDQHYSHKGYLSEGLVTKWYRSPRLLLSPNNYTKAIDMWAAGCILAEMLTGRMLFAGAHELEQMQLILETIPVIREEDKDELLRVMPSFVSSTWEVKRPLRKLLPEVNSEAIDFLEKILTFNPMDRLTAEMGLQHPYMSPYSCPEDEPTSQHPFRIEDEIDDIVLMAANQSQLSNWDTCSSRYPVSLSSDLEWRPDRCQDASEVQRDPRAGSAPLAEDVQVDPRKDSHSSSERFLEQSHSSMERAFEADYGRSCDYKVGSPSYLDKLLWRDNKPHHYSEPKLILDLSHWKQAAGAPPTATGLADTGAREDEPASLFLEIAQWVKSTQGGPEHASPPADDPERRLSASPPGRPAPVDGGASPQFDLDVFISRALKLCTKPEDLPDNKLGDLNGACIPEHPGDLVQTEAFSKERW
UniProt Q13523, sequence (whole entry, looked up): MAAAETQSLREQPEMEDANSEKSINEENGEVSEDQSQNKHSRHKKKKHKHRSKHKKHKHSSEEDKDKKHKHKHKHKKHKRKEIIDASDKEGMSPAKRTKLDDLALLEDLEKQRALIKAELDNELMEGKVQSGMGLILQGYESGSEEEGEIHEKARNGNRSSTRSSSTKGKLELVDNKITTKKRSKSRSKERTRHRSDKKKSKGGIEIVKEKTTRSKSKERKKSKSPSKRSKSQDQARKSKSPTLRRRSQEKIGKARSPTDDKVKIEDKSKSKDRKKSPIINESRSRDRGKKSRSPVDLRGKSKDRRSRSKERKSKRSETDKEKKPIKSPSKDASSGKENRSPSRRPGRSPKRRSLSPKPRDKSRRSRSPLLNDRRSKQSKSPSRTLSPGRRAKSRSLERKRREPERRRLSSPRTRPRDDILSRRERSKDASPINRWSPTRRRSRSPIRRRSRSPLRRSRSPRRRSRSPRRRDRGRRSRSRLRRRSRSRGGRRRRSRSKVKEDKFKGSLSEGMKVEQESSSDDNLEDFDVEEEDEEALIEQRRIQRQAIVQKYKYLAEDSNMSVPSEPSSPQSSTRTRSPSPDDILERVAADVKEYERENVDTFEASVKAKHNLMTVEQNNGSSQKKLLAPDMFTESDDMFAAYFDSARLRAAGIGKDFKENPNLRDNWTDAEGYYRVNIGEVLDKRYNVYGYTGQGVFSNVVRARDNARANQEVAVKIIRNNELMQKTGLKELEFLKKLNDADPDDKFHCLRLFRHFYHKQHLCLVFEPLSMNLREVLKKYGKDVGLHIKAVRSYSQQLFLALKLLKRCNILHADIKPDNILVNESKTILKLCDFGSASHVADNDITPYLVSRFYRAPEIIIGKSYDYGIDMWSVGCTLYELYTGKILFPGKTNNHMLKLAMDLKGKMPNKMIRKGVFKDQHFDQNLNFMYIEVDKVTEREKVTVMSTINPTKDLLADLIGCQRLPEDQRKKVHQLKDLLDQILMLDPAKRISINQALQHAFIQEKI
UniProt P11309, sequence (whole entry, looked up): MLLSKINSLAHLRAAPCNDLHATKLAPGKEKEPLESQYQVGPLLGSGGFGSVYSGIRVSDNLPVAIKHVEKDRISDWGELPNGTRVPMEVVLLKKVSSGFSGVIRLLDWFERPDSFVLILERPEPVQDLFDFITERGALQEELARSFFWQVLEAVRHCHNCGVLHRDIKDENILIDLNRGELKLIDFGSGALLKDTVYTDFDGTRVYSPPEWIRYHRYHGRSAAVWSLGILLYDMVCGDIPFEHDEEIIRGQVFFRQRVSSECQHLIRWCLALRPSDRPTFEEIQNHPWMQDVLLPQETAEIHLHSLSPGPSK
UniProt O43353, sequence (whole entry, looked up): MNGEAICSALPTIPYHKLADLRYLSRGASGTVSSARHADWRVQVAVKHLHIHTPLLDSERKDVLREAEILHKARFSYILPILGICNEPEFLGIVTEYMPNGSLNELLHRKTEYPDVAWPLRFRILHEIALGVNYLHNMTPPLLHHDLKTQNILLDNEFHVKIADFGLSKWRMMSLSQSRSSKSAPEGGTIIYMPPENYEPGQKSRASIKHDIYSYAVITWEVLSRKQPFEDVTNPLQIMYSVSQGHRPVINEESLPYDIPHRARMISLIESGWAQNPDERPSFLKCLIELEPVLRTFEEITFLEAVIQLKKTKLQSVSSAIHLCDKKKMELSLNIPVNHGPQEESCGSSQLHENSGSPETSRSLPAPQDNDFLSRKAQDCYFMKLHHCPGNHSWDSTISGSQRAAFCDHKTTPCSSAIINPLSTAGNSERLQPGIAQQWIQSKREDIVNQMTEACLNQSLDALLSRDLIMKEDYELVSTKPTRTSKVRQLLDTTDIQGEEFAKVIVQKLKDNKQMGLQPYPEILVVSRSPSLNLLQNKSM

Block 1
Target: Serine/threonine-protein kinase B-raf (BRAF, Homo sapiens, UniProt P15056)
UniProt P15056, sequence (whole entry, looked up): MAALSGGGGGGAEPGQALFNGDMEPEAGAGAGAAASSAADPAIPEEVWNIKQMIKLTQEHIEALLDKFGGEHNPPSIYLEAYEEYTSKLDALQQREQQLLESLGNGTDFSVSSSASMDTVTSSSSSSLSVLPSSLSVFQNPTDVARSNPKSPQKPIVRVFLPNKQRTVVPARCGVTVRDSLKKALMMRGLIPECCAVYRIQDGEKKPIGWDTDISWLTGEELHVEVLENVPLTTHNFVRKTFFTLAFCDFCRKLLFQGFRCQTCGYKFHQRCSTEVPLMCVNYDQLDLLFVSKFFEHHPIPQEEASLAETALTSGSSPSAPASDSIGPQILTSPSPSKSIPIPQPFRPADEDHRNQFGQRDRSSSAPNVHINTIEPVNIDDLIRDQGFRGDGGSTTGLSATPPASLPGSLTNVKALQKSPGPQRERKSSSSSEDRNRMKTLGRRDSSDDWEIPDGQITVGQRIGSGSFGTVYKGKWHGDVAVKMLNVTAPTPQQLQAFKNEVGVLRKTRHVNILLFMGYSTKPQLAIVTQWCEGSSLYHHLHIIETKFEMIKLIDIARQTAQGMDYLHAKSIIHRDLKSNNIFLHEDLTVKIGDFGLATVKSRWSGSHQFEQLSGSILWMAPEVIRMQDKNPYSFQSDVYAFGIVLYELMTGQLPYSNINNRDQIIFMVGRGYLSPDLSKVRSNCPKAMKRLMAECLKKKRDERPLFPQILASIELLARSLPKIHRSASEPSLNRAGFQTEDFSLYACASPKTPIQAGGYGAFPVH
Effect on: enzyme activity
Action: inhibitor
Concentration: 0.5 µM
Baseline: control
`O=C1Cc2c([nH]c3ccc(Br)cc23)-c2ccccc2N1` has a remaining activity of 97.7%.
The remaining activity of `N#Cc1cnc2cnc(NCc3cccnc3)cc2c1Nc1ccc(F)c(Cl)c1` is reported as 106%.
With `CN(C)S(=O)(=O)c1ccc2c(c1)/C(=C/c1cc3c([nH]1)CCCC3)C(=O)N2` the remaining activity was 89.2%.
`O=C1NC(=O)c2c1c1c3ccccc3[nH]c1n1cncc21` gave a remaining activity of 101%.
The remaining activity of `COc1cccc(-c2cc(=O)c3ccccc3o2)c1N` is reported as 93.6%.
For `O=C(c1cc2cc(O)ccc2[nH]1)c1cc2cc(O)ccc2[nH]1`, the remaining activity was 97.4%.
`CN1CCN(c2ccc3nc(-c4c(N)c5c(F)cccc5[nH]c4=O)[nH]c3c2)CC1` gave a remaining activity of 105%.
The remaining activity of `c1ccc2c(-c3ccncc3)c[nH]c2c1` is reported as 94%.

Block 2
Structure (SMILES): O=C(NS(=O)(=O)c1ccc(NCC2CCOCC2)c([N+](=O)[O-])c1)c1ccc(N2CCN(Cc3ccc(C(F)(F)F)cc3-c3ccc(Cl)cc3)CC2)cc1Oc1cnc2[nH]ccc2c1
Effect on: cell-free assay
Method: competition with immobilised ligand
Concentration: 1 µM
For FLT3 (Homo sapiens, UniProt P36888, N841I): remaining binding read 100%.
It gave 82% for remaining binding (EPHB6 (Homo sapiens, UniProt O15197)).
PRPF4B (Homo sapiens, UniProt Q13523) — remaining binding: 100%.
For CSF1R (Homo sapiens, UniProt P07333): remaining binding read 100%.
The remaining binding was 97% (MAPK4 (Homo sapiens, UniProt P31152)).
It gave 100% for remaining binding (GSK3A (Homo sapiens, UniProt P49840)).
For MAP4K3 (Homo sapiens, UniProt Q8IVH8): remaining binding read 92%.
For PRKACB (Homo sapiens, UniProt P22694): remaining binding read 91%.
The remaining binding was 100% (PLK3 (Homo sapiens, UniProt Q9H4B4)).
For Tyrosine-protein kinase ABL1, non-phosphorylated (ABL1, Homo sapiens, UniProt P00519, T315I): remaining binding read 82%.
PIM1 (Homo sapiens, UniProt P11309) — remaining binding: 92%.
The remaining binding was 98% (MAP4K1 (Homo sapiens, UniProt Q92918)).
ANKK1 (Homo sapiens, UniProt Q8NFD2) — remaining binding: 77%.
For MAP3K5 (Homo sapiens, UniProt Q99683): remaining binding read 82%.
The remaining binding was 100% (CSNK1G2 (Homo sapiens, UniProt P78368)).
For RIPK2 (Homo sapiens, UniProt O43353): remaining binding read 100%.

Block 3
Species: mouse
Sample: microsomes or S9
Concentration: 2 µM
Time: 0.5 h
With `O=S(=O)(Cc1cc(Cl)cc(Cl)c1)N1CCN(c2nccs2)CC1` the remaining compound was 4.45%.
For `CNc1nc(CNc2nc(COC)nc3scc(-c4ccccc4)c23)cs1`, the remaining compound was 1.91%.
`CC(NNC(=O)c1ccccc1Br)C(=O)Nc1sccc1C#N` (stereo not drawn) has a remaining compound of 8.92%.
`Cc1c(CNCC(c2cccs2)N(C)C)cc(C#N)n1C` (stereo not drawn) has a remaining compound of 0.0803%.
`Cc1cc(C)n(-c2cccc(-c3cnc4n3CCOC4)c2)n1` has a remaining compound of 0.07%.
The remaining compound of `N#Cc1cccc(COc2cccnc2Nc2nc3cc(F)ccc3[nH]2)c1` is reported as 35.1%.
The remaining compound of `O=C1NCC2C1CCCN2C(=O)c1cnn(-c2ccc(F)cc2)n1` (stereo not drawn) is reported as 81%.
With `Cc1ccc(C(C)(C)C)c(OCCOCCN2CC(C)OC(C)C2)c1` (stereo not drawn) the remaining compound was 0.0229%.

Block 4
Compound: CC(C)(C(=O)O)[C@H](NC(=O)Cc1cccc(I)c1)c1ccc2oc(=O)[nH]c2c1
Method: Incucyte 3D growth
Concentration: 30 µM
Direction: higher = more growth
For A375; 408.52 h: spheroid area read 1.76e+08 a.u. and 1.82e+08 a.u. and 1.54e+08 a.u. and 1.63e+08 a.u. and 1.74e+08 a.u.
For IPC-298; 234 h: spheroid area read 2.8e+07 a.u. and 4.62e+07 a.u. and 2.89e+07 a.u. and 3.8e+07 a.u. and 3.22e+07 a.u. and 3.21e+07 a.u.
It gave 2.66e+07 a.u. and 2.14e+07 a.u. and 2.87e+07 a.u. and 2.84e+07 a.u. and 2.48e+07 a.u. and 3.07e+07 a.u. for spheroid area (IPC-298; 48 h).
For NCI-H1437; 198 h: spheroid area read 8.07e+07 a.u. and 4.13e+07 a.u. and 4.73e+07 a.u. and 5.93e+07 a.u. and 6.6e+07 a.u. and 3.4e+07 a.u.
It gave 1.91e+08 a.u. and 1.63e+08 a.u. and 1.7e+08 a.u. and 1.84e+08 a.u. and 1.72e+08 a.u. for spheroid area (A375; 366.52 h).
For MEL-JUSO; 444.52 h: spheroid area read 7.68e+07 a.u. and 2.54e+07 a.u. and 3.23e+07 a.u. and 2.85e+07 a.u. and 5.13e+07 a.u. and 2.62e+07 a.u.
For KP-4; 270 h: spheroid area read 4.66e+07 a.u. and 6.63e+07 a.u. and 9.51e+07 a.u. and 2.72e+07 a.u. and 6.59e+07 a.u. and 9.28e+07 a.u.

A few entries again (block 4):
For A375; 408.52 h: spheroid area read 1.76e+08 a.u. and 1.82e+08 a.u. and 1.54e+08 a.u. and 1.63e+08 a.u. and 1.74e+08 a.u.
For KP-4; 270 h: spheroid area read 4.66e+07 a.u. and 6.63e+07 a.u. and 9.51e+07 a.u. and 2.72e+07 a.u. and 6.59e+07 a.u. and 9.28e+07 a.u.
For IPC-298; 234 h: spheroid area read 2.8e+07 a.u. and 4.62e+07 a.u. and 2.89e+07 a.u. and 3.8e+07 a.u. and 3.22e+07 a.u. and 3.21e+07 a.u.
It gave 1.91e+08 a.u. and 1.63e+08 a.u. and 1.7e+08 a.u. and 1.84e+08 a.u. and 1.72e+08 a.u. for spheroid area (A375; 366.52 h).
It gave 2.66e+07 a.u. and 2.14e+07 a.u. and 2.87e+07 a.u. and 2.84e+07 a.u. and 2.48e+07 a.u. and 3.07e+07 a.u. for spheroid area (IPC-298; 48 h).
For NCI-H1437; 198 h: spheroid area read 8.07e+07 a.u. and 4.13e+07 a.u. and 4.73e+07 a.u. and 5.93e+07 a.u. and 6.6e+07 a.u. and 3.4e+07 a.u.
